Results collected from several papers.
Each numbered part is a random draw from the data of one study; scales do not carry over between parts. Changes are numbered by the printed parent chain.

Series 1
Target: CREBRF, bZIP domain (human)
Method: DHFR protein complementation
Matrix: yeast
Setting: single substitutions, most at no-binding floor
Reference: wild-type JUN-FOS pair
Reading: higher = stronger binding
Starting sequence: JUN, bZIP domain (human); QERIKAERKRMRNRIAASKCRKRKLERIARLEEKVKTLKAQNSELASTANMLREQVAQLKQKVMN; partner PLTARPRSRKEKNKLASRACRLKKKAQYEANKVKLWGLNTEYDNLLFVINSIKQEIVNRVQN
Variant	binding fitness [natural log]
A29T	-1.4
N42G	-1.48
A40Q	-1.31
L38A	-1.41
N42T	-1.51
T37Q	-1.56
K36W	-1.55
E54Q	-1.38
E33Q	-1.6
Q41P	-1.48
K34R	-1.39
A49W	-1.34
S43D	-1.45
E44N	-1.47
R53P	-1.5
T37E	-1.36
S47P	-1.56
R53N	-1.52
T48P	-1.5
L38N	-1.54
L52G	-1.57
S47N	-1.45
A49C	-1.49
K36P	-1.55
A49Q	-1.41

Series 2
Target: CCNB1, cyclin fold, Cln2 fusion (human)
Method: yeast growth competition, sequencing
Matrix: yeast
Setting: weak parent motif
Reference: not given
Reading: higher = stronger binding
Starting sequence: WEE1 docking peptide (human); HKTFRKLRLFDTP
Variant	normalised enrichment score
T3G	1.68
K2P	0.236
P13G	-0.383
K6D	0.688
F10K	0.249
K2G	0.48
D11K	0.37
L7H	0.851
F4K	0.644
H1Q	0.83
R8D	0.438
R5G	-0.645
H1R	2.09
L7D	-0.191
T3Q	0.385
K2F	0.412
L7T	0.284
P13W	0.503
R5V	-0.809
T3H	0.691
R5N	-4.58
P13D	0.649
K6E	-0.0624
D11R	0.234
D11L	0.828

Series 3
Target: Ras GTPase-activating protein-binding protein 1, C-terminal RGG region (G3BP1, Homo sapiens, UniProt Q13283)
Chain of UniProt Q13283 (whole entry, looked up): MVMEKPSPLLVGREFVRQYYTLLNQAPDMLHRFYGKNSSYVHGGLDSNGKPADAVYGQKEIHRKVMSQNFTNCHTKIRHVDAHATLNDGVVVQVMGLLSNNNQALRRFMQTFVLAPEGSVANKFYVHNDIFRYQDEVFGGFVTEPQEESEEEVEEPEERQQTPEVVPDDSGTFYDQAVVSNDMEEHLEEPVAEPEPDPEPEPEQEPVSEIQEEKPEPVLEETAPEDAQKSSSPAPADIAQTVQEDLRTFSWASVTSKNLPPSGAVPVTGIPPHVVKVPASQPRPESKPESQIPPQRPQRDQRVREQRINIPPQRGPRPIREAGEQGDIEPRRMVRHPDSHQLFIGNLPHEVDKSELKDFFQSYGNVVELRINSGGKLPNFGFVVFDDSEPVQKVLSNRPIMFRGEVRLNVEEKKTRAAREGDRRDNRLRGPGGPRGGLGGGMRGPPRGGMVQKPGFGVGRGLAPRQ
Method: RNA Bind-n-Seq
Molecule type: RNA
Matrix: in vitro
Tested at: 1 µM
Setting: whole 134-nt RNA, ends assumed
With: 150 mM KCl
Reference: input library
Reading: higher = stronger binding
Strand	log2 enrichment
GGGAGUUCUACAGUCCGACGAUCGCAGGAAGUAAAAACAAAUGGAAAUGCUUCGGAUAGUAAAAGGGGUGGGGGUUGCUAAGGAAAGGGUGGGAUGGGAGUGGGUAAAGAGUUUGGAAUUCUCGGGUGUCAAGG	2.23
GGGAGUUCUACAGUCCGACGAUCUGACUUUAGAGGAGGAUCUGAUGGAUAUGGCAGUGGACGUGGAUUUGGGGAUGGCUAUAAUGGGUAUGGAGGAGGACCUGGAGGUGGCAAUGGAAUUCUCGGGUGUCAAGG	-1.33
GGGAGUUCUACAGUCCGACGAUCUCCUGUGCUACACAUCGUAUGUACCGAAUCGGGGAAAGGGGAAAAAAAGGGGUUUGGGGAAAGUAUUAUGUUACGCCGUUCGGAUCUGCAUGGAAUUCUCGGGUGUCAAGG	1.7
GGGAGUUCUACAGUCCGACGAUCUGGCCCUGGUGGCAUGCGGGGAGGAAGAGGUGGCCUCAUGGAUCGUGGUGUUCCCGGUGGAAUGUUCAGAGGUGGCCGUGGUGGAGACAGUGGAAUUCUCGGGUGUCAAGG	1.61
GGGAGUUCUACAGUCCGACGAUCCAAGUCCUGUGCUACACAUCGUAUGUACCGAAUCGGUUUGGAAAGGAAAAAAAGGAAAGUAUUAUGUUACGCCGUUCGGAUCUGCACUUCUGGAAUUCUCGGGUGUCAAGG	-1.49
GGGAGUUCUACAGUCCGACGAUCCACAGACAACACGCACCCACACAUACACAGAGGGAAGGGGUUGGGAUGGGGACAGGGUGCACAGCAGGGCGGGGUAGGACCCCAGCCCCUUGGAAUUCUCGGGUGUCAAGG	-0.278
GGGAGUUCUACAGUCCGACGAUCUGGCCCUGGUGGCAUGCGGAGAGGAAGAGGUGGCCUCAUGGAUCGUGGUGGUCCCGGUGGAAUGUUCAGAGGUGGCCGUGGUGGAGACAGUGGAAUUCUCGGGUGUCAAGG	1.78
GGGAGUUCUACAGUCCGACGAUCUAACUUUAGAGGAGGAUCUGAUGGAUAUGGCAGUGGACGUGGAUUUGGGGAUGGCUAUAAUGGGUAUGGAGGAGGACCUGGAGCUGGCAAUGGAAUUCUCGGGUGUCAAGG	-0.665
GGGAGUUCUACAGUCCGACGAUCAAAUAUCAGUGAUCAUCGCAAGGAAGGAGGCAGACAAGAGUAAGGCACACCUGACUCUUAGGACUAGCAGUCAGAACCAGGAGGAAAGGUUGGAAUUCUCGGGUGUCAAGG	-1.21
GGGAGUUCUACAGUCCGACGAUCCUCAAGUCCUGUGCUACACAUCGUAUGUACCGAAUCGGAAGGAAGGGGAAGGGAAAGUAUUAUGUUACGCCGUUCGGAUCUGCACUUCCAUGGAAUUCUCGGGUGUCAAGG	-0.986
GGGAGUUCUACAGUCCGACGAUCACCAUGCAGGUGGGCAUCUUUGGGAAGUGGGGCAAGGGGGGGAUAGGGAGAGGGGUAACACUUUGGGAACAGGUGGUCCCAGGUCGUUUCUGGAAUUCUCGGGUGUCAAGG	2.44
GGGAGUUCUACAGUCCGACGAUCUGUUGCCGUGUGUCUCACCCUACCAUUUCAGAAAAAUGUUCGUUGGUGGCCUGAGCUGGGAUACUAGCAAAAAAGAUUUAAAAGACUAUUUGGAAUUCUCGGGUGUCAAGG	-2.27
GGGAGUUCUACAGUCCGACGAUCAAGUCCUGUGCUACACAUCGUAUGUACCGAAUCAAAUUUAAAUUUUUAAAUUUAAAAAAGUAUUAUGUUACGCCGUUCGGAUCUGCACUUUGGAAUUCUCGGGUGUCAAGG	-2.86
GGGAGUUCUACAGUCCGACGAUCUCAAGUCCUGUGCUACACAUCGUAUGUACCGAAUCGGUUUUUUUGGAGGAAAGGAAAGUAUUAUGUUACGCCGUUCGGAUCUGCACUUCCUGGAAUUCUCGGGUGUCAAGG	-1.18

Series 4
Target: Sal-like protein 4, full length isoform B (SALL4, Homo sapiens, UniProt Q9UJQ4-2, residues 1-616)
Method: universal PBM
Molecule type: double-stranded DNA, one strand shown
Matrix: in vitro
Tested at: not given
Setting: 8-mer, flanks averaged, mean of replicates
Reading: higher = stronger binding
Strand	E-score
ACCCAACA	-0.171
CTGACACA	-0.0269
AGGCCGAG	-0.228
CTTGAGTC	-0.0656
ACTCCGGA	-0.054
ACATGAGT	0.106
CGATTAAG	0.0487
TCCTTGAA	0.0736
AAGGTCCA	-0.0939
AAAGTAAA	0.285
TACTTGAA	0.289
AGCTTCGA	-0.111
ATTTGATC	-0.0485
CTGACCGA	-0.227
AATAGTAG	0.248
ATCAACGG	0.0403
TGCCGCCA	-0.161

Series 5
Target: RING finger protein unkempt homolog, zinc fingers 1-6, GST-SBP tag (UNK, Homo sapiens, UniProt Q9C0B0, residues 30-357)
Method: RNA Bind-n-Seq
Molecule type: RNA
Matrix: in vitro
Tested at: not given
Setting: RNA with constant flanks, human-mouse chimeric sites, ends assumed
Reference: input RNA pool
Reading: higher = stronger binding
Construct (chain): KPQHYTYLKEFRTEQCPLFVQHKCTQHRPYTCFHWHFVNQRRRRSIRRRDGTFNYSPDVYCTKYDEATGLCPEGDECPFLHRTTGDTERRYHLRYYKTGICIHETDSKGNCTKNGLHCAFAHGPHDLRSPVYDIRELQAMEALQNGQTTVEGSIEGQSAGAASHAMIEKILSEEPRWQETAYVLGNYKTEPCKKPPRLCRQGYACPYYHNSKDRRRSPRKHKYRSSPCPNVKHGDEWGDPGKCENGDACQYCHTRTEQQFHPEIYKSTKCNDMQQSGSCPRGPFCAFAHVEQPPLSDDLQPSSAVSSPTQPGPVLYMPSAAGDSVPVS
Strand	bound/input enrichment
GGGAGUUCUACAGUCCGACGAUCCUUAAUGUUAAUAUUUUUGAAUAAAUGUAAAACCAUGGUCUGCUUUUGGUACAACACGCAUUAAUAAAAGGUUAAGUUUUGUUUUCCCUCCACUGAAUAUUUAACAUCUCAGAAAAAAACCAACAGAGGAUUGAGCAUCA	0.285 ratio
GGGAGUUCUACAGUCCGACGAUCCACAGAGGAGACCUCCUGUUCCUCACGAAUUUCCGGGAGGACCCCAUCAGAGCUGGUGAAAUAGUUGUUUUUAAGGUUGAAGGACGAGACAUUCCGAUAGUUCACAGAGUAAUCAAGGUUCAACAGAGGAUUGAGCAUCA	3.3 ratio
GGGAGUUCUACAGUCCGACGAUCUACUCAACUUUCUUGCCACAUUUUGAAUUCCAAGACAUUAUUCCUCCAGAUGACUUCCUAACGAGUGAUGAAGAGCAAGAUUUGGUUUUAUUUGGAAGUUUGAGAGGACAAGUUGUUGGACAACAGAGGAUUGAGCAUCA	0.189 ratio
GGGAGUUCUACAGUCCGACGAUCACUCAGAGAUCCACCUCCCAAAGUGCUGGGAGUAAAGGUGUGGCCACCACACCUAACUUGAUGGAUAUAUAUUUUUUCUCUUUUAUGUCUUCCUGUUCGUCCAGGGAAGAAAGAUUUGUUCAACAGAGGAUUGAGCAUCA	0.88 ratio
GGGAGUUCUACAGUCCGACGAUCGUUGCCAGCUUCCGGUUCCGUUGGGCUCGGUUCUCUCCUGAGCUACGUGUCUCUACGCUCUCAAUCCCGGUUGGGUAGGCAGUCAUGCAGGUAAUGCAGUUUGUGGAGCCCAGCCGGCAGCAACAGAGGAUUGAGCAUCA	0.0837 ratio
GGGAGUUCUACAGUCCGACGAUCCUCAUGGCUGCAGAAACAGGAAGUGGAAAAACUGGUGCAUUUAGUAUUCCCGUUAUCCAGAUAGUGUAUGAAACUCUGAAAGACCAACAGGAAGGCAAAAAAGGAAAAACAACUAUUAAACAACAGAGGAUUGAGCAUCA	0.677 ratio
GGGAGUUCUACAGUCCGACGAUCAUGGAACAUUUCGAUGCAUCACUUAGUACCUAUUUCAAGGCCUUCCUGGGCCCCCGAGAUACAAGAGUCAAAGGAUGGUUUCUUCUGGACAAUUACAUCCCUACGUUUGUCUGUUCUGUUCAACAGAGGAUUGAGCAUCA	0.419 ratio
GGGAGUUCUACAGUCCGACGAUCAAAUCGUGUGUGUCCAAUAUUGAAAGUGCUUUAUCUACACUCCAGUAUGUAAGCAGCAUAGUAGUUUCUUUAGAGAAUAGGUCAGCCAUUGUAAAGUAUAAUGCAAGCUUAGUCACUCCACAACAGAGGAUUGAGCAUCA	10.4 ratio
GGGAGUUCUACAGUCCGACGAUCCCUGCUCAGAUCACCAUGAAAGUAAUCCAAGGCCUAUACAGUGGGGUCACCACAGUGGAACUGGACACCCUGGCUGCUGAGACAGCCGCAACCUUGACCACGAAGCACCCUGACUAUGCCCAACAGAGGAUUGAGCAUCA	0.147 ratio
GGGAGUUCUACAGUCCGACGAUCGAGCCCAGUCGGCAGUUUGUAAAGGACUCAAUUCGGCUGGUUAAAAGAUGCACCAAACCCGACAGAAAAGAAUUCCAGAAGAUUGCCAUGGCAACAGCUAUAGGAUUUGCUAUCAUGGGACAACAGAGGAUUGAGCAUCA	0.189 ratio
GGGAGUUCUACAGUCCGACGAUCUCGGAUGCUGUGCUGGGUCACUUUUCAUAUCCUGAUCCUUCCCAGUGGACAGAUGAAGAACUGGGAAUCCCUCCUGAUGACGAGGACUGACACUGUAAACUCUCUGGACGAGUAGGAGCACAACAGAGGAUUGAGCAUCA	0.634 ratio

Series 6
Target: Histone acetyltransferase KAT6A, both winged helices, GST fusion (KAT6A, Homo sapiens, UniProt Q92794, residues 1-181)
Method: protein binding microarray
Molecule type: double-stranded DNA, one strand shown
Matrix: in vitro
Tested at: not given
Setting: 8-mer, flanks averaged, mean of 2 arrays, mostly near background
Reference: not given
Reading: higher = stronger binding
Construct (chain): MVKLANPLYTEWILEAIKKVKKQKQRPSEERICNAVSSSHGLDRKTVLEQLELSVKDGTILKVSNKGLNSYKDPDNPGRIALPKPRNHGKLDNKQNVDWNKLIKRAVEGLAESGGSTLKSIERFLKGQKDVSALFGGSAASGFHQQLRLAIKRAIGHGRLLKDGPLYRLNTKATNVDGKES
Strand	E-score
ATGACGCA	0.0537
ATACGGTA	0.178
AACGAACT	-0.0922
GGCACCGA	0.0722
AGTAAAAT	-0.0222
CGCCAAGA	0.0898
AGTACCGA	0.0166
GAGGACGA	-0.0815
CAACCGTC	0.0975
ACTGACAA	0.0138
GGATACAC	-0.019
ACTAATGG	-0.165
AGTCTTCG	-0.0737
AAATGCTT	-0.0962
ATAGCGGC	0.272
AATTTACC	0.00436
ACGAGTAC	-0.114
ACGTCCTG	-0.0948
TAAATTAA	-0.18
GGGTAACC	0.0122
AGAAACTC	-0.158
GCGGTCTA	0.234
CCGACTCG	0.0806
GCACGTTA	-0.0678
AGGACAAC	-0.193

Single results of other studies
Molecule	target	assay	system	conditions	scale	quantity	result
PhoQ, residues 284 288 289 292 302 303 MLMVEA	PhoP, residues 12 14 15 18 19 TQAIL (Escherichia coli, UniProt P23836)	Sort-seq, measured: YFP reporter	E. coli	PhoQ-PhoP variant library, with: 10 µM Mg2+	reference: high Mg2+ state, higher = stronger signaling	fold induction	7.4

Some of these lines once more (series 1):
Variant	binding fitness [natural log]
A40Q	-1.31
L38A	-1.41
N42T	-1.51
T37Q	-1.56
K36W	-1.55
E54Q	-1.38
E33Q	-1.6
Q41P	-1.48
K34R	-1.39
A49W	-1.34
S43D	-1.45
E44N	-1.47
